Results of several laboratories.
Lines come from different studies, so protocols differ.
Organism: Salmonella enterica

CNC(C)C1CCC(N)C(OC2C(N)CC(N)C(OC3OCC(C)(O)C(NC)C3O)C2O)O1 (stereo not drawn)  MIC (microbial growth, broth dilution; CHOLERAESUIS): < 1 µM
CC(C)C[C@H](NC(=O)[C@H](CCC(=O)O)NC(=O)[C@H](C)NC(=O)[C@H](CC(C)C)NC(=O)[C@H](CCC(=O)O)NC(=O)[C@H](C)NC(=O)[C@H](CCC(N)=O)NC(=O)[C@H](CC(C)C)NC(=O)[C@H](CCC(=O)O)NC(=O)[C@H](Cc1ccc(O)cc1)NC(=O)[C@H](CC(C)C)NC(=O)[C@H](CCC(N)=O)NC(=O)[C@H](C)NC(=O)[C@H](CCC(=O)O)NC(=O)[C@H](CC(C)C)NC(=O)[C@H](CCC(N)=O)NC(=O)[C@H](C)NC(=O)[C@H](CC(C)C)NC(=O)[C@H](CCC(=O)O)NC(=O)[C@H](C)NC(=O)[C@@H](N)CCC(N)=O)C(N)=O  MIC (broth microdilution; ATCC 700720; 24 h): > 250 µM
C#CCNC(=O)C1(O/N=C(\C(=O)N[C@@H]2C(=O)N(OS(=O)(=O)O)C2(C)C)c2csc(N)n2)CC1  MIC (microbial growth, agar dilution; TYPHI): 1 µg/mL
CO[C@H]1O[C@H](COC(c2ccccc2)(c2ccccc2)c2ccccc2)[C@@H](OS(=O)(=O)c2ccccc2)[C@H](OS(=O)(=O)c2ccccc2)[C@H]1OS(=O)(=O)c1ccccc1  MBC (microbial killing, broth dilution; TYPHI): 8 µg/mL
O=C(c1ccccc1O)c1[nH]c(Cl)c(Cl)c1-n1c(C(=O)c2ccccc2O)cc(Cl)c1Cl  MIC (microbial growth; ATCC13311): > 64 µM
CC[C@H](C)[C@H](NC(=O)[C@H](CCCCN)NC(=O)[C@H](CCCNC(=N)N)NC(=O)CNC(=O)[C@@H](NC(=O)CN)C(C)C)C(=O)NCC(=O)N[C@@H](Cc1ccccc1)C(=O)N[C@@H](CCCCN)C(=O)N[C@@H](CCCCN)C(=O)N[C@H](C(=O)N[C@@H](CC(C)C)C(=O)N[C@@H](Cc1ccccc1)C(=O)N[C@@H](Cc1ccccc1)C(=O)N[C@@H](Cc1ccccc1)C(=O)N[C@@H](CCCCN)C(=O)N[C@@H](CCCCN)C(=O)NCC(=O)N[C@@H](Cc1ccc(O)cc1)C(=O)N[C@@H](CCC(=O)O)C(=O)N[C@@H](CCCCN)C(=O)N[C@@H](C)C(=O)N[C@@H](CC(N)=O)C(=O)NCC(=O)NCC(=O)N[C@@H](Cc1ccccc1)C(=O)N[C@H](C(=O)N[C@@H](CCCCN)C(=O)N[C@@H](CCCCN)C(=O)N[C@@H](CCCCN)C(=O)NCC(=O)O)C(C)C)C(C)C  MBC (broth microdilution, agar subculture; ATCC 15611, CaMHB): > 1020 µM
COc1cccc(OC)c1C(=O)N[C@@H]1C(=O)N2[C@@H]1SC(C)(C)[C@@H]2C(=O)O  MIC (microbial growth, broth dilution; CHOLERAESUIS): > 128 µM
CC1(C)[C@H](NC(=O)/C(=N\OCc2cc(=O)c(O)cn2O)c2csc(N)n2)C(=O)N1OS(=O)(=O)O  MIC (microbial growth, agar dilution; TYPHI): ≤ 0.03 µg/mL
CC(C)C[C@H](NC(=O)[C@H](CCCNC(=N)N)NC(=O)[C@H](C)NC(=O)[C@H](CC(C)C)NC(=O)[C@H](CCCNC(=N)N)NC(=O)[C@H](C)NC(=O)[C@H](CCCCN)NC(=O)[C@H](CC(C)C)NC(=O)[C@H](CCCNC(=N)N)NC(=O)[C@H](Cc1ccc(O)cc1)NC(=O)[C@H](CC(C)C)NC(=O)[C@H](CCCNC(=N)N)NC(=O)[C@H](C)NC(=O)[C@H](CCCNC(=N)N)NC(=O)[C@H](CC(C)C)NC(=O)[C@H](CCCCN)NC(=O)[C@H](C)NC(=O)[C@H](CC(C)C)NC(=O)[C@H](CCCNC(=N)N)NC(=O)[C@H](C)NC(=O)[C@@H](N)CCCCN)C(N)=O  MIC (broth microdilution; ATCC 700720; 24 h): 3.1 µM

Some of these lines once more:
COc1cccc(OC)c1C(=O)N[C@@H]1C(=O)N2[C@@H]1SC(C)(C)[C@@H]2C(=O)O  MIC (microbial growth, broth dilution; CHOLERAESUIS): > 128 µM
